Experimental data from different studies.
Each line is one published result; not all experiments were run side by side.

| Structure (SMILES) | organism | test | test system | setting | MIC |
| --- | --- | --- | --- | --- | --- |
| CCCCCC(=O)NCCCC[C@H](NC(=O)CCCCC)C(=O)N[C@@H](CCCCNC(=O)CCCCC)C(=O)NCC(=O)NCC(=O)NCC(=O)N[C@@H](CS)C(=O)N[C@@H](CCCNC(=N)N)C(=O)N[C@@H](CCCCN)C(=O)N1CCC[C@H]1C(=O)N[C@@H](CS)C(=O)N[C@@H](CCCNC(=N)N)C(=O)N[C@@H](CCCCN)C(=O)N1CCC[C@H]1C(N)=O | Candida albicans | broth microdilution | SP 3902, RPMI-1640 | 48 h, 30 °C | 16 µM |
| CCCCCCCCCCCCCC(=O)N[C@H]1C(=O)N[C@@H](CN)C(=O)N[C@@H](CO)C(=O)N[C@@H](Cc2ccc(O)cc2)C(=O)O[C@H]1C | Staphylococcus aureus | – | SH1000 | added: phosphatidylethanolamine, molar ratio 0.5 | 2 µg/mL |
| CC[C@H](C)[C@H](NC(=O)[C@H](CCCNC(=N)N)NC(=O)[C@H](CC(=O)O)NC(=O)[C@H](CCCNC(=N)N)NC(=O)[C@H](CC(C)C)NC(=O)[C@H](CC(N)=O)NC(=O)[C@H](CCCNC(=N)N)NC(=O)[C@@H](N)Cc1ccccc1)C(=O)N[C@@H](CCCCN)C(=O)N[C@@H](CC(N)=O)C(=O)N[C@@H](CCCCN)C(=O)N[C@@H](Cc1ccccc1)C(=O)N[C@@H](CCC(=O)O)C(=O)N[C@@H](CC(N)=O)C(=O)N[C@@H](C)C(=O)N[C@@H](CC(C)C)C(=O)N[C@@H](CCCCN)C(=O)N[C@@H](CC(N)=O)C(=O)N[C@H](C(=O)N[C@H](C(=O)N[C@@H](CC(N)=O)C(=O)N[C@@H](CCCCN)C(=O)N[C@@H](CC(C)C)C(=O)N[C@@H](Cc1ccccc1)C(=O)N1CCC[C@H]1C(=O)O)[C@@H](C)CC)C(C)C | Bordetella bronchiseptica | broth microdilution | ATCC 10580 | – | 20.7 µM |
| COc1ccc(C2=[N+]([O-])c3ccccc3N3CCN=C23)cc1 | Fusobacterium nucleatum | – | – | – | 0.06 to 0.125 µg/mL |
| CC(=O)N[C@@H](CC(C)C)C(=O)N[C@H]1CSSC[C@@H](C(=O)N2CCC[C@H]2C(N)=O)NC(=O)[C@H]([C@@H](C)O)NC(=O)[C@H](C(C)C)NC(=O)[C@H]([C@@H](C)O)NC(=O)CNC(=O)[C@H](CC(C)C)NC(=O)[C@H](Cc2ccccc2)NC(=O)[C@H](Cc2ccc(O)cc2)NC(=O)[C@H](CC(C)C)NC(=O)[C@H](CCCCN)NC(=O)[C@H](Cc2ccccc2)NC(=O)[C@H](CCCNC(=N)N)NC(=O)[C@H](CCCCN)NC(=O)[C@H](CC(C)C)NC(=O)[C@H](CCCCN)NC(=O)[C@@H]2CCCN2C(=O)[C@H](CCCCN)NC(=O)[C@H](C(C)C)NC(=O)[C@H](CC(N)=O)NC(=O)[C@H](Cc2ccc(O)cc2)NC(=O)[C@H]([C@@H](C)O)NC1=O | Aeromonas hydrophila | broth dilution | – | 24 h | 2.5 to 5 µM |
| CC[C@H](C)[C@H](NC(=O)[C@H](CCCCN)NC(=O)[C@H](CCCCN)NC(=O)[C@H](Cc1ccccc1)NC(=O)[C@H](Cc1ccccc1)NC(=O)[C@H](CCCCN)NC(=O)[C@H](CCCCN)NC(=O)[C@H](Cc1ccccc1)NC(=O)[C@H](CCCNC(=N)N)NC(=O)[C@@H](N)CCCCN)C(=O)N[C@@H](CCCCN)C(=O)N[C@@H](CCCCN)C(=O)N[C@@H](CO)C(=O)N[C@H](C(=O)N[C@@H](CCCCN)C(=O)N[C@@H](CCCCN)C(=O)N[C@@H](CCCNC(=N)N)C(=O)N[C@H](C(=O)N[C@@H](CCCCN)C(=O)N[C@@H](CCCCN)C(=O)N[C@@H](CC(C)C)C(=O)N[C@@H](Cc1ccccc1)C(=O)N[C@@H](CCCCN)C(=O)N[C@@H](CCCCN)C(=O)N1CCC[C@H]1C(=O)N[C@@H](CCCNC(=N)N)C(=O)N[C@H](C(=O)N[C@H](C(=O)N1CCC[C@H]1C(=O)N[C@H](C(=O)N[C@@H](CO)C(=O)N[C@H](C(=O)N1CCC[C@H]1C(=O)N[C@@H](Cc1ccccc1)C(=O)O)[C@@H](C)CC)[C@@H](C)CC)[C@@H](C)CC)C(C)C)C(C)C)C(C)C | Escherichia coli | – | E24 | 20 h, added: 200 mM NaCl | 4 µg/mL |
| CN[C@H](CC(C)C)C(=O)N[C@H]1C(=O)N[C@@H](CC(N)=O)C(=O)N[C@H]2C(=O)N[C@H]3C(=O)N[C@H](C(=O)N[C@H](C(=O)NCc4cn(CC(=O)N[C@H](C(=O)N[C@@H](CCN)C(=O)N[C@H]5CCNC(=O)[C@H]([C@@H](C)O)NC(=O)[C@H](CCN)NC(=O)[C@H](CCN)NC(=O)[C@H](CC(C)C)NC(=O)[C@@H](CC(C)C)NC(=O)[C@H](CCN)NC5=O)[C@@H](C)O)nn4)c4cc(O)cc(O)c4-c4cc3ccc4O)[C@H](O)c3ccc(c(Cl)c3)Oc3cc2cc(c3O[C@@H]2O[C@H](CO)[C@@H](O)[C@H](O)[C@H]2O[C@H]2C[C@](C)(N)[C@H](O)[C@H](C)O2)Oc2ccc(cc2Cl)[C@H]1O | Staphylococcus simulans | broth microdilution | 22, cation-adjusted Mueller-Hinton broth | – | ≤ 0.003 µM |
| CC[C@H](C)[C@H](NC(=O)[C@H](CCCNC(=N)N)NC(=O)[C@H](CO)NC(=O)[C@H](Cc1ccc(O)cc1)NC(=O)[C@@H](NC(=O)[C@@H](NC(=O)[C@H](C)NC(=O)CNC(=O)[C@H](CCCCN)NC(=O)[C@H](CCCCN)NC(=O)CCNC(=O)CCCCCNC(=O)[C@H](CCCNC(=N)N)NC(=O)CCCCCNC(=O)[C@H](CCCNC(=N)N)NC(=O)[C@H](CCCNC(=N)N)NC(=O)CCCCCNC(=O)[C@H](CCCNC(=N)N)NC(=O)[C@H](CCCNC(=N)N)NC(=O)CCCCCNC(=O)[C@H](CCCNC(=N)N)NC(=O)[C@H](CCCNC(=N)N)NC(=O)CCCCCNC(=O)[C@@H](N)CCCNC(=N)N)C(C)C)[C@@H](C)O)C(=O)N[C@@H](CO)C(=O)NCC(=O)N[C@@H](CCC(N)=O)C(=O)N[C@@H](Cc1ccc(O)cc1)C(=O)N[C@@H](CCCCN)C(=O)O | Escherichia coli | broth microdilution | ATCC 25922, Mueller-Hinton broth | 16 to 18 h, 37 °C | 6 µM |
| CCCCCCCCCC(=O)NCCCC[C@H](NC(=O)CCCCCCCCC)C(=O)N[C@@H](CCCCNC(=O)CCCCCCCCC)C(=O)NCC(=O)NCC(=O)NCC(=O)N[C@@H](CS)C(=O)N[C@@H](CCCNC(=N)N)C(=O)N[C@@H](CCCCN)C(=O)N1CCC[C@H]1C(=O)N[C@@H](CS)C(=O)N[C@@H](CCCNC(=N)N)C(=O)N[C@@H](CCCCN)C(=O)N1CCC[C@H]1C(N)=O | Candida albicans | broth microdilution | 14936, RPMI-1640 | 48 h, 30 °C | 16 µM |
| C=C(NC(=O)c1csc(-c2nc3c(cc2O)-c2nc(cs2)C(=O)NC(C(C)O)C(=O)NC(=C(C)OC)c2nc(cs2)C(=O)NC2c4nc(cs4)C(=O)NC(COC(=O)c4c5c6c(cccc6n4O)COC(=O)C(OC4CC(C)(O)C(N(C)C)C(C)O4)C2OC5)c2nc-3cs2)n1)C(N)=O (stereo not shown) | Staphylococcus aureus | – | MRSA strain 4 | – | 0.0156 µg/mL |
| CC[C@H](C)[C@@H]1NC(=O)[C@@H]([C@@H](C)O)NC(=O)CNC(=O)[C@H](CC(=O)O)NC(=O)CNC(=O)[C@H](CC(=O)O)NC(=O)CNC(=O)[C@H]2CCCCN2C(=O)[C@@H](NC(=O)[C@H](CC(=O)O)NC(=O)/C=C/CCCCCCCCCC(C)C)CNC(=O)[C@@H]2CCCN2C1=O | Staphylococcus aureus | broth microdilution | VISA LIM strain 2, Mueller-Hinton broth, Mg2+ 10 mg/L | 16 h, added: Ca2+ 10 mM | 2 µg/mL |
| CC[C@H](C)[C@H](N)C(=O)N[C@@H](CCCNC(=N)N)C(=O)N[C@H](C(=O)N[C@@H](Cc1c[nH]c2ccccc12)C(=O)N[C@@H](Cc1ccccc1)C(=O)N[C@H](C(=O)N[C@@H](CCCCN)C(=O)N[C@H](C(=O)N[C@@H](CCCNC(=N)N)C(=O)N[C@@H](CCCCN)C(=O)N[C@@H](CCSC)C(=O)N[C@@H](CCCCN)C(=O)N[C@@H](C)C(=O)N[C@H](C(=O)N[C@@H](Cc1ccc(O)cc1)C(=O)N[C@@H](Cc1c[nH]cn1)C(=O)N[C@H](C(N)=O)[C@@H](C)O)[C@@H](C)CC)C(C)C)[C@@H](C)CC)C(C)C | Listeria monocytogenes | broth dilution | KCTC 13064 | – | 50 µM |
| CCCCCCCC(=O)NCCCC[C@H](NC(=O)CCCCCCC)C(=O)N[C@@H](CCCCNC(=O)CCCCCCC)C(=O)NCC(=O)NCC(=O)NCC(=O)N[C@@H](CS)C(=O)N[C@@H](CCCNC(=N)N)C(=O)N[C@@H](CCCCN)C(=O)N1CCC[C@H]1C(=O)N[C@@H](CS)C(=O)N[C@@H](CCCNC(=N)N)C(=O)N[C@@H](CCCCN)C(=O)N1CCC[C@H]1C(N)=O | Candida albicans | broth microdilution | SP 3902, RPMI-1640 | 48 h, 30 °C | 8 µM |
| CC1(C)S[C@@H]2[C@H](NC(=O)[C@H](NC(=O)C3=C(O)C(c4ccccc4F)NC3=O)c3ccccc3)C(=O)N2[C@H]1C(=O)O (stereo partly shown) | Escherichia coli | broth microdilution | ATCC 35218, low-level TEM-1 | added: clavulanic acid 6 µg/mL | 100 µg/mL |
| CCCCCCCCCCCC(=O)NCCCC[C@H](NC(=O)CCCCCCCCCCC)C(=O)N[C@@H](CCCCNC(=O)CCCCCCCCCCC)C(=O)NCC(=O)NCC(=O)NCC(=O)N[C@@H](CS)C(=O)N[C@@H](CCCNC(=N)N)C(=O)N[C@@H](CCCCN)C(=O)N1CCC[C@H]1C(=O)N[C@@H](CS)C(=O)N[C@@H](CCCNC(=N)N)C(=O)N[C@@H](CCCCN)C(=O)N1CCC[C@H]1C(N)=O | Candida albicans | broth microdilution | SP 3903, RPMI-1640 | 48 h, 30 °C | > 128 µM |
| C=C1NC(=O)C2CSCC3NC(=O)C(CSC(C)C(NC(=S)C(Cc4cnc[nH]4)NC(=O)c4csc(C(C)NC(C)=O)n4)C(=O)N[C@H](CC(C)C(=O)NC(=O)CC(C(=O)O)NC(=O)C(C)NC3=O)C(=O)N2)NC(=O)[C@@H]2CCCN2C(=O)[C@@H](CC(C)C)NC1=O (stereo partly shown) | Candida glabrata | EUCAST broth microdilution | clinical isolate, RPMI 1640 MOPS-buffered 2% glucose | 48 h, pH 7.0, 24 °C | > 32 µg/mL |

Repeated from above:
| Structure (SMILES) | organism | test | test system | setting | MIC |
| --- | --- | --- | --- | --- | --- |
| CC1(C)S[C@@H]2[C@H](NC(=O)[C@H](NC(=O)C3=C(O)C(c4ccccc4F)NC3=O)c3ccccc3)C(=O)N2[C@H]1C(=O)O (stereo partly shown) | Escherichia coli | broth microdilution | ATCC 35218, low-level TEM-1 | added: clavulanic acid 6 µg/mL | 100 µg/mL |
| CCCCCCCCCCCC(=O)NCCCC[C@H](NC(=O)CCCCCCCCCCC)C(=O)N[C@@H](CCCCNC(=O)CCCCCCCCCCC)C(=O)NCC(=O)NCC(=O)NCC(=O)N[C@@H](CS)C(=O)N[C@@H](CCCNC(=N)N)C(=O)N[C@@H](CCCCN)C(=O)N1CCC[C@H]1C(=O)N[C@@H](CS)C(=O)N[C@@H](CCCNC(=N)N)C(=O)N[C@@H](CCCCN)C(=O)N1CCC[C@H]1C(N)=O | Candida albicans | broth microdilution | SP 3903, RPMI-1640 | 48 h, 30 °C | > 128 µM |
